# Measurements gathered from unrelated publications.
# Lines come from different studies, so protocols differ. Numbers after ± are the reported error.
SMILES,method,sample,tested at,time,temperature,notes,logP
O=C(NCCCNc1nc(Nc2cccc(NC(=O)N3CCCC3)c2)ncc1I)c1cccs1,shake flask,octanol/water,,24 h,room temperature,,0.86 ± 0.3
Cc1n[nH]c(C)c1CSC1CCCCC1,reversed-phase HPLC,acetonitrile-water,,,,,1.65 ± 0.3
Cn1c(=O)c2[nH]cnc2n(C)c1=O,"shake flask, n-octanol/water",,1000 ng/mL,,22 °C,,-0.0197 ± 0.00932
COc1ccc2c3c1O[C@H]1C(=O)C=C[C@@]4(O)[C@@H](C2)N(C)CC[C@]314,,,,1 h,,,1.01
CC(=O)CC(c1ccccc1)c1c(O)c2ccccc2oc1=O (stereo not shown),"shake flask, n-octanol/water",,1000 ng/mL,,22 °C,,2.06 ± 0.128
CN1CC[C@]23c4c5ccc(O)c4O[C@H]2[C@@H](O)CC[C@@]3(O)[C@H]1C5,,,,1 h,,,1.05
O=C(O)CNC(=O)C1C(=O)N(C2CCCCC2)C(=O)N(C2CCCCC2)C1=O,"shake-flask, potentiometric",1-octanol/water,,,,,5.2
CCCCCCCCCCCCOS(=O)(=O)O.Cc1cc(/C=C/C#N)cc(C)c1Nc1ccnc(Nc2ccc(C#N)cc2)n1,,octanol/water,,,room temperature,,1.68 ± 0.24
COc1ccc2c3c1O[C@H]1[C@@H](O)C=C[C@@]4(O)[C@@H](C2)N(C)CC[C@]314,,,,1 h,,,0.83
[Cl][Ru][Cl].c1ccc(-c2ccccn2)nc1.c1ccc(-c2ccccn2)nc1.c1ccc(-c2ccccn2)nc1,"shake flask, octanol/water",,,,,chloride salt,-3

# Excerpt of the above:
SMILES,method,sample,tested at,time,temperature,notes,logP
Cc1n[nH]c(C)c1CSC1CCCCC1,reversed-phase HPLC,acetonitrile-water,,,,,1.65 ± 0.3
